Published values from different studies.
Numbered parts are unrelated; each lists some results of a single study. Values joined by “and” are separate records of one study, mostly repeats; a detail may differ.
UniProt Q15418, sequence (whole entry, looked up): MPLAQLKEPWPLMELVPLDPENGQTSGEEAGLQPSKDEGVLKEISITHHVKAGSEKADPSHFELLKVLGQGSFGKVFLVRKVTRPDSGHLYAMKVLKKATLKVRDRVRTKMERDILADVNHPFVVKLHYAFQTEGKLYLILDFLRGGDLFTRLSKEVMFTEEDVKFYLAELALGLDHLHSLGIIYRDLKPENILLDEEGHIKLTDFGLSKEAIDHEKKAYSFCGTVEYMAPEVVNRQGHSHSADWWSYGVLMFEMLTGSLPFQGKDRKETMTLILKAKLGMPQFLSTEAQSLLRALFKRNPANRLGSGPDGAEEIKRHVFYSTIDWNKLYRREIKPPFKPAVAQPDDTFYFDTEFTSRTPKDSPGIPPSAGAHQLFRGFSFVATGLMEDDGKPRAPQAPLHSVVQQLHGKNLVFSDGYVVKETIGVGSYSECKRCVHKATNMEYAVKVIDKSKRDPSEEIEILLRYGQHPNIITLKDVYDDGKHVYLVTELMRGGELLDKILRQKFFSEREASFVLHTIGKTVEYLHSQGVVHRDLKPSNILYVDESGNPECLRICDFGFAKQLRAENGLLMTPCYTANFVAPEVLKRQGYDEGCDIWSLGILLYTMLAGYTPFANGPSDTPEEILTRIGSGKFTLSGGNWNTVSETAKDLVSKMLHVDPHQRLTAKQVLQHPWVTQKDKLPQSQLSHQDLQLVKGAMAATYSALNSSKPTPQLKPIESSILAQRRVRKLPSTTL
UniProt Q9UF33, sequence (whole entry, looked up): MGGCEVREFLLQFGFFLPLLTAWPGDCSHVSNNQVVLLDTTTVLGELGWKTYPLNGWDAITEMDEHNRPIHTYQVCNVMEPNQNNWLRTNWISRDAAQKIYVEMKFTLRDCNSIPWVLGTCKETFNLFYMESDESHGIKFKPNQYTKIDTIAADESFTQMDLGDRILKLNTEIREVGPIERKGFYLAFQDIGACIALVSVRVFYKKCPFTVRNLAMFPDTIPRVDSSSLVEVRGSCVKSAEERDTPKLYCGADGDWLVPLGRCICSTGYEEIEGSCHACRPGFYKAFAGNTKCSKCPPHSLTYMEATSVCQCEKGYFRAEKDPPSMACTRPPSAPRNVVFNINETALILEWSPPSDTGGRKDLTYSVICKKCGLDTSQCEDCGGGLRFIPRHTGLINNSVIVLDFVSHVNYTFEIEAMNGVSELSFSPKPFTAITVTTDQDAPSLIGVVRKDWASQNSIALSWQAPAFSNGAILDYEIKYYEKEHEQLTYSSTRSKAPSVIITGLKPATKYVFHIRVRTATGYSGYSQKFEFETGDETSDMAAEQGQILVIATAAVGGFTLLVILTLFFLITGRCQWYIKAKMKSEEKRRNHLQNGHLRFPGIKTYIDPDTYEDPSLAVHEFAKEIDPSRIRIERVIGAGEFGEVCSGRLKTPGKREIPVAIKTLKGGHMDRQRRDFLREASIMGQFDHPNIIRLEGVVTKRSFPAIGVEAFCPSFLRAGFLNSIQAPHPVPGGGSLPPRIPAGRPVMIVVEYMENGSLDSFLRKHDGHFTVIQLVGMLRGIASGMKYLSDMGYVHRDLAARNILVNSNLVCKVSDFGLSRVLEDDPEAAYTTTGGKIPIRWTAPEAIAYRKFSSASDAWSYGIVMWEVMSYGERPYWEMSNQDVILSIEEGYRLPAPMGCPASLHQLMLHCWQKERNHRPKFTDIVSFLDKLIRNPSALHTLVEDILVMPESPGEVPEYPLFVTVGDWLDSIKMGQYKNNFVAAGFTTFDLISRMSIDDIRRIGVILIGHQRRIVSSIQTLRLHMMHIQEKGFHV
UniProt Q04759, sequence (whole entry, looked up): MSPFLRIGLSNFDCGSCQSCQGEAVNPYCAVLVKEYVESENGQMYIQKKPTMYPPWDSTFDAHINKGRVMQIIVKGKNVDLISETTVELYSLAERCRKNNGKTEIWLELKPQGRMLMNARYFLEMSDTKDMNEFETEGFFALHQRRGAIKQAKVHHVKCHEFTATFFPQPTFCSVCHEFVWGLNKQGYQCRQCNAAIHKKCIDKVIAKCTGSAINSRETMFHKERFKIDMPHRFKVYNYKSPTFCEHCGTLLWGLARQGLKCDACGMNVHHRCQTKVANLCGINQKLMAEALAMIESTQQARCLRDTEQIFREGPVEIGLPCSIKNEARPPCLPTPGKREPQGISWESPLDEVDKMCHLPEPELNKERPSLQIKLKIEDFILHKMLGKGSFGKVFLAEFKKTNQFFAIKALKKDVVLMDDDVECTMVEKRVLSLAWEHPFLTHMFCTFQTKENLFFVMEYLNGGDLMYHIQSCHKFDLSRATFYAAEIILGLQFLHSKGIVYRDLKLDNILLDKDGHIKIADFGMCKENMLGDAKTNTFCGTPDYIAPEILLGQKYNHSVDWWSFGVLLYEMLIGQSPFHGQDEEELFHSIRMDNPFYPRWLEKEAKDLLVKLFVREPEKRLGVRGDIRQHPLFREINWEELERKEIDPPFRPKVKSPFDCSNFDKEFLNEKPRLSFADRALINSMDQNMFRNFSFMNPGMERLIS
UniProt Q9BXA7, sequence (whole entry, looked up): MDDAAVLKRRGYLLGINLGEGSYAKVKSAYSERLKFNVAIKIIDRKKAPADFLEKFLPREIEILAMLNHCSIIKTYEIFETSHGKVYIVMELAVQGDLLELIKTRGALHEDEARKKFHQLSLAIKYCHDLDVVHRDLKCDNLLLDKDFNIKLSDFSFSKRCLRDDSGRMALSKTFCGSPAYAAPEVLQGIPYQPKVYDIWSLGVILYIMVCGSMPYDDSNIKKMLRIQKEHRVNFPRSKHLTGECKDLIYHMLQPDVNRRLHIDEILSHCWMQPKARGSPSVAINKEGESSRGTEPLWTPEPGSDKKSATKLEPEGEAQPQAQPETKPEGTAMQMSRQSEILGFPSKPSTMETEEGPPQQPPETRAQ
UniProt Q8N5S9, sequence (whole entry, looked up): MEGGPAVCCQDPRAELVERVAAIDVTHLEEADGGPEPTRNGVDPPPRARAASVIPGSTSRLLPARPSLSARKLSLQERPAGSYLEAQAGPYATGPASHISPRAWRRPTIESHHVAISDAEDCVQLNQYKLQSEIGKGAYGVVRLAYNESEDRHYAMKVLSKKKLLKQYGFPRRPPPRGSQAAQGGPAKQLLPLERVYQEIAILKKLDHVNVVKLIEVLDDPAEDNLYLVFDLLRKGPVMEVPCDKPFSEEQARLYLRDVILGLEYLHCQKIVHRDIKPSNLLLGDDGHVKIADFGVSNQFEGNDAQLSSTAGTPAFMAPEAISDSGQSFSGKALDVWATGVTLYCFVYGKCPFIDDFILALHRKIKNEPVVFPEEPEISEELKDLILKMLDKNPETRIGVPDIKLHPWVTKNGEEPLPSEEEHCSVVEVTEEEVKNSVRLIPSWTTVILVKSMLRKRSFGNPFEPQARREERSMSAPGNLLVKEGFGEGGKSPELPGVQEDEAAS
UniProt O14936, sequence (whole entry, looked up): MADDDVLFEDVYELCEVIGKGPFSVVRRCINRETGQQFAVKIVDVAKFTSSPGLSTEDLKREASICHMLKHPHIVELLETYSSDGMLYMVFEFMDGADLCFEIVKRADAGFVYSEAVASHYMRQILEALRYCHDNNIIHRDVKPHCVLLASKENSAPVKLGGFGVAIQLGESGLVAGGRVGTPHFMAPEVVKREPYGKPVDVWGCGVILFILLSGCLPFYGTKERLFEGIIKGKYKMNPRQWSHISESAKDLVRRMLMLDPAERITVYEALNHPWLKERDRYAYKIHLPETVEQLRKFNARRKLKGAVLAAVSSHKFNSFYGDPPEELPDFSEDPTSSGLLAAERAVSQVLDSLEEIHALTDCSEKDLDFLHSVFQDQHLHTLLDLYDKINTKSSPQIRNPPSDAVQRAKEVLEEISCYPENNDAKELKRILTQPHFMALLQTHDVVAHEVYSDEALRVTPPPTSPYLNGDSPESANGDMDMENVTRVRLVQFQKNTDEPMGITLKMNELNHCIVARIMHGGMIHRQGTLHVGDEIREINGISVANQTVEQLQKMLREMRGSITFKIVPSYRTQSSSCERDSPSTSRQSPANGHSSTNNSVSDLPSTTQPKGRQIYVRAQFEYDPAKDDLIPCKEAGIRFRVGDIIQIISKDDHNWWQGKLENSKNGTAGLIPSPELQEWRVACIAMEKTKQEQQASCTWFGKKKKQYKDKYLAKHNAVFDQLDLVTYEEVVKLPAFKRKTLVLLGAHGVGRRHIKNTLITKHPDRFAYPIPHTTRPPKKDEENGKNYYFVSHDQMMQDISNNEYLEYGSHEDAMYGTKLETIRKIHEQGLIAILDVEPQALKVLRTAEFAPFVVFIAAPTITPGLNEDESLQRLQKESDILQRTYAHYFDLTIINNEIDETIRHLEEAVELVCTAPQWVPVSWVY
UniProt P49674, sequence (whole entry, looked up): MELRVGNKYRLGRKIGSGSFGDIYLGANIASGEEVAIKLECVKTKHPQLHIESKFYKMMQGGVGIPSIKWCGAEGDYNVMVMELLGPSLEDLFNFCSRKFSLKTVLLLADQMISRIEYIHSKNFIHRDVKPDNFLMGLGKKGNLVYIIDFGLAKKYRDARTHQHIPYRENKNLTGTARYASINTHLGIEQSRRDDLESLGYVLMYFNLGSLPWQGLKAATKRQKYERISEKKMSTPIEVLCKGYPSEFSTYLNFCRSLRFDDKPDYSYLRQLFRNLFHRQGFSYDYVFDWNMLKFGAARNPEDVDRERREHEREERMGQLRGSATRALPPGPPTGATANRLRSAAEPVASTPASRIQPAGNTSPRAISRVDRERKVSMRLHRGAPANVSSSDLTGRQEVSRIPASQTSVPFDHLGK
UniProt P11802, sequence (whole entry, looked up): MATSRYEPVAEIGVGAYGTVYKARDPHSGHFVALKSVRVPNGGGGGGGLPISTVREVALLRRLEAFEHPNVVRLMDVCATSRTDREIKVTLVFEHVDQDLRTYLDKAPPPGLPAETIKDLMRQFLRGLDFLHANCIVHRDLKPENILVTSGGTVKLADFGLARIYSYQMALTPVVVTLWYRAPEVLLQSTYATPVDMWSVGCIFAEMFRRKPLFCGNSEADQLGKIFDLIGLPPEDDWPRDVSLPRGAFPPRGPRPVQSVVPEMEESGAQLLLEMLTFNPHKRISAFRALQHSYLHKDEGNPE

Study 1
SMILES: CC1=C(C#N)[C@@H](c2ccc3[nH]nc(C)c3c2)C(C#N)=C(c2ccc(Cl)cc2)N1
Effect on: cell-free assay
Method: competition with immobilised ligand
Tested at: 1 µM
target | remaining binding [%]
Ephrin type-A receptor 6 (EPHA6, Homo sapiens, UniProt Q9UF33) | 100
Serine/threonine-protein kinase Nek9 (NEK9, Homo sapiens, UniProt Q8TD19) | 95.6
Ribosomal protein S6 kinase alpha-1, C-terminal kinase domain (RPS6KA1, Homo sapiens, UniProt Q15418) | 100
G protein-coupled receptor kinase 3 (GRK3, Homo sapiens, UniProt P35626) | 85.3
Misshapen-like kinase 1 (MINK1, Homo sapiens, UniProt Q8N4C8) | 77
Atypical kinase COQ8B, mitochondrial (COQ8B, Homo sapiens, UniProt Q96D53) | 78.8
Testis-specific serine/threonine-protein kinase 1 (TSSK1B, Homo sapiens, UniProt Q9BXA7) | 100
Ribosomal protein S6 kinase alpha-1, N-terminal kinase domain (RPS6KA1, Homo sapiens, UniProt Q15418) | 91.2
Cyclin-dependent kinase 4, with cyclin D1 (CDK4, Homo sapiens, UniProt P11802) | 96.1
Calcium/calmodulin-dependent protein kinase kinase 1 (CAMKK1, Homo sapiens, UniProt Q8N5S9) | 93.7
Cyclin-dependent kinase 3 (CDK3, Homo sapiens, UniProt Q00526) | 100
Peripheral plasma membrane protein CASK (CASK, Homo sapiens, UniProt O14936) | 66.2
Serine/threonine-protein kinase ULK3 (ULK3, Homo sapiens, UniProt Q6PHR2) | 88.3

Study 2
SMILES: C[C@@H]1CN(c2ccc(-c3cc(C(=O)NCCOCCOCCOCCOCCNC(=O)Cn4cc(-c5[nH]cc(C(=O)N[C@@H](CC(N)=O)c6ccc(F)c(Cl)c6)c5-c5ccc(Cl)cc5F)cn4)ccc3F)cc2NC(=O)c2c[nH]c(=O)cc2C(F)(F)F)C[C@H](C)N1C
Method: ATPlite
cell line | sample | tested at | time | relative to | viability
MV4-11 expressing HiBiT-WDR5 | RPMI with 10% FBS | 585 nM | 24 h | – | 97.4% and 104% and 117%
MV4-11 expressing HiBiT-WDR5 | RPMI with 10% FBS | 13.3 nM | 24 h | – | 96.3% and 84.4% and 95%
MV4-11 | – | 1 µM | 5 days | DMSO | 67.3% and 54.7% and 79.7%

Study 3
Structure (SMILES): N#C/C(=C(/N)SC1C=CC=CC1)c1cccc(C(O)c2ccncc2)c1 (centres unmarked)
Effect on: enzyme activity
Mode: inhibitor
Tested at: 0.5 µM
Relative to: control
target | remaining activity
Serine/threonine-protein kinase SIK2 (SIK2, Homo sapiens, UniProt Q9H0K1) | 105%
Tyrosine-protein kinase Tec (TEC, Homo sapiens, UniProt P42680) | 101%
Calcium/calmodulin-dependent protein kinase type 1 (CAMK1, Homo sapiens, UniProt Q14012) | 100%
Ephrin type-A receptor 6 (EPHA6, Homo sapiens, UniProt Q9UF33) | 103%
Dual specificity protein kinase CLK1 (CLK1, Homo sapiens, UniProt P49759) | 109%
Vascular endothelial growth factor receptor 1 (FLT1, Homo sapiens, UniProt P17948) | 87.5%
Ribosomal protein S6 kinase alpha-3 (RPS6KA3, Homo sapiens, UniProt P51812) | 104%
Casein kinase I isoform delta (CSNK1D, Homo sapiens, UniProt P48730) | 101%
Dual specificity protein kinase CLK2 (CLK2, Homo sapiens, UniProt P49760) | 97.4%
Cyclin-dependent kinase 2, with cyclin E (CDK2, Homo sapiens, UniProt P24941) | 80.6%
Serine/threonine-protein kinase PAK 1 (PAK1, Homo sapiens, UniProt Q13153) | 97.7%
Muscle, skeletal receptor tyrosine-protein kinase (MUSK, Homo sapiens, UniProt O15146) | 101%
Serine/threonine-protein kinase Sgk2 (SGK2, Homo sapiens, UniProt Q9HBY8) | 99.9%
Protein kinase C theta type (PRKCQ, Homo sapiens, UniProt Q04759) | 103%
Insulin-like growth factor 1 receptor (IGF1R, Homo sapiens, UniProt P08069) | 105%
Tyrosine-protein kinase JAK1 (JAK1, Homo sapiens, UniProt P23458) | 107%
Mitogen-activated protein kinase kinase kinase 20 (MAP3K20, Homo sapiens, UniProt Q9NYL2) | 97.1%
Casein kinase I isoform epsilon (CSNK1E, Homo sapiens, UniProt P49674) | 98.3%
Tyrosine-protein kinase receptor TYRO3 (TYRO3, Homo sapiens, UniProt Q06418) | 107%
Ephrin type-A receptor 2 (EPHA2, Homo sapiens, UniProt P29317) | 101%

Study 4
Cell line: A-375
Tested at: 100 µM
Time: 36 h
Compound | viability
CC1Cc2ccccc2N1NC(=O)c1ccc(Cl)c(S(N)(=O)=O)c1 (centres unmarked) | 93.6%
CCCNC(C)C(=O)Nc1c(C)csc1C(=O)OC (centres unmarked) | 108%
Cc1nc(C)c(C)nc1C | 118%
CC=Cc1ccc(OC)cc1 | 86.9%
CNC[C@H](O)c1cccc(O)c1 | 125%

Repeated from above (study 3):
target | remaining activity
Cyclin-dependent kinase 2, with cyclin E (CDK2, Homo sapiens, UniProt P24941) | 80.6%
Dual specificity protein kinase CLK1 (CLK1, Homo sapiens, UniProt P49759) | 109%
Vascular endothelial growth factor receptor 1 (FLT1, Homo sapiens, UniProt P17948) | 87.5%
Ephrin type-A receptor 6 (EPHA6, Homo sapiens, UniProt Q9UF33) | 103%
